# Measurements gathered from unrelated publications.
# A part holds a random share of what one study measured.

# Study 1 — method: protein-binding microarray; form: double-stranded DNA, one strand shown; medium: in vitro; concentration: 250 nM; notes: 60-bp whole probe; added: salmon DNA 0.4 mg/ml; relative to: random background probes; reading: higher = stronger binding; all sequences stand within: GCCTAGCAC … GTCTTGATTCGCTTGACGCTGCTG
# Target: Interferon regulatory factor 7, full length, phosphomimetic (IRF7, Homo sapiens, UniProt Q92985, residues 1-503, S101K/S471D/S472D/S475D/S476D/S477D/S483D/S484D/S487D)
# UniProt Q92985, sequence (whole entry, unmodified, looked up): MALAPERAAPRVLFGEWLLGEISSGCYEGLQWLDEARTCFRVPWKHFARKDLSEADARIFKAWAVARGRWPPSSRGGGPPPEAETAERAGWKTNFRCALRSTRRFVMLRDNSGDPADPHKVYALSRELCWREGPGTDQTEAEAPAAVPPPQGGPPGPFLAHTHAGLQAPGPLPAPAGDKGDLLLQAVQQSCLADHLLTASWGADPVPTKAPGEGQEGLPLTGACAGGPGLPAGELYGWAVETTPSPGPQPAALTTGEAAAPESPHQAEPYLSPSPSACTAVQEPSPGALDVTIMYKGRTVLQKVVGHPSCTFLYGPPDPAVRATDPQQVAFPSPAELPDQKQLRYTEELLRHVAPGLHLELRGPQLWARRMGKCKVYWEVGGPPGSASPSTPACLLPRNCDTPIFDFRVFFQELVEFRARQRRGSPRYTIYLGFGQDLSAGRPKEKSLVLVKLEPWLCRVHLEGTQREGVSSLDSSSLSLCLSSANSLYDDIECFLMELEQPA
Strand,log fluorescence [z-score]
TTAGGTTCCCTTTTCCTGTAGTGCTAG,3.94
GCAGGAGAGACAGAAGTTATGTGCTAG,-1.01
CACGAACTGAGTCTCGAGACGTGCTAG,0.351
GTAGAACTGGGGTATCGATTAGTGCTA,-0.204
GACGGACTGCTTATCCGGACGTGCTAG,-0.128
TTAGGTATCGGTCTCGGCTAGTGCTAG,0.965
GATGATTTCAGTTTCGAGACGTGCTAG,4.87
TTAGGTTTCCTTTCCCATTAGTGCTAG,4.98
CCCACCCTCAGGGAGCCTGTGTGCTAG,-0.613
TTAGTTATCAGACTGGATTAGTGCTAG,0.257
GACGGTATCCTTATCCTGAGGTGCTAG,0.149
TTCTTAATGCTTCTGGGCCAGTGCTAG,-0.141
GACGATATCCTTCTCCTGACGTGCTAG,0.117
GACGGTATCCTCCTCCTGACGTGCTAG,-0.3
TTAGGTATCCTTATCCTTTAGTGCTAG,0.643
TAAGATATCAGTATCGATTAGTGCTAG,1.2
TTGGAACTGAGACTGGATTAGTGCTAG,-0.271
GACGATCTCAGACTAGAGACGTGCTAG,-0.276
TTCTTTTTTTCTTTTATTAGGTGCTAG,1.81
GACGGTCTCGAACTGGGGACGTGCTAG,-0.0235
AGAGCTATCACTATTCTAGGGTGCTAG,-0.678

# Study 2 — method: protein-binding microarray; form: double-stranded DNA, one strand shown; medium: in vitro; concentration: not given; reading: higher = stronger binding
# Target: Transcription factor SOX-2, HMG box (SOX2, Homo sapiens, UniProt P48431, residues 19-118)
# UniProt P48431, sequence (19-118, looked up): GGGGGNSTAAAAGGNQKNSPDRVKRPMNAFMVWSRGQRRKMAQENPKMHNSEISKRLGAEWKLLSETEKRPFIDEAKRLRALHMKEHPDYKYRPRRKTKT
# Notes: k-mer, scored over probes, only values ≥0.25
Strand,E-score
CCATTGA,0.351
CTATACA,0.261
CTGAATC,0.296
AGAATTG,0.384
ACAAAAA,0.3
ATTCACG,0.317
AATTATC,0.384
AATAATC,0.344
AATACAC,0.257
ATTGGGA,0.274
AGACAAA,0.331
TAAAGAA,0.261
ATTCTTA,0.34
ATTCAAA,0.363
AGAATAA,0.367
AATTGTA,0.442
CCAATTC,0.295
AATATTC,0.256

# Study 3 — method: universal PBM; form: double-stranded DNA, one strand shown; medium: in vitro; concentration: not given; reading: higher = stronger binding
# Target: Sal-like protein 4, full length isoform B (SALL4, Homo sapiens, UniProt Q9UJQ4-2, residues 1-616)
# Notes: 8-mer, flanks averaged, mean of replicates
Strand,E-score
GGATGAAA,0.00988
GATACTGC,0.059
AGGAACAC,-0.0329
TCAAAGCA,0.0963
TCGTACAA,0.314
GACTTTCA,0.0533
AATAGGGT,0.246
AATGCGGT,-0.18
CCAACCGG,-0.397
GCCGATAA,0.0526
ACGATACA,0.113
CAGCCATC,-0.235
CGGAACGC,-0.263
AACCCTGA,0.0789
AGTGCATA,0.147
AGACTAGA,-0.0263
AGCTGGAG,-0.144
ACACTAAC,0.0971
TTCAGCAA,0.124
CGGAGTGA,-0.162
TATGTGCA,0.228
AAGATCCG,-0.2
AAGCGGAA,0.00156

# Study 4 — method: RNA Bind-n-Seq; form: RNA; medium: in vitro; concentration: 365 nM; relative to: no-protein control; reading: higher = stronger binding
# Target: RNA binding protein fox-1 homolog 2, RRM domain, GST-SBP tag (RBFOX2, Homo sapiens, UniProt O43251-10, residues 100-194)
# Notes: natural RNA segment, single round, ends assumed
# All sequences stand within: GGGAGUUCUACAGUCCGACGAUC … UGGAAUUCUCGGGUGCCAA
# Construct (chain): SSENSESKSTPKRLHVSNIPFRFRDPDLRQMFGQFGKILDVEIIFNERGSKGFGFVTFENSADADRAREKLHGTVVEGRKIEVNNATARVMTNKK
Strand,RBNS enrichment (R)
AGGCAUGGUGGUUCAUGCCUGUAAUAGCACUUUGGGAGACUGAGGUGGGAGGAUCACUUGGGGCCAGGAGUUUGAGACCAGCUUGGGCAACACAGCGCAAUCUCGUCUCU,0.477
GCACAUAGGCCAGUCCGAGUUCUUUCUUAACAAGAUGGCUGUUCUGGCCUGGCCAGCAGUCUGCAUGCUGAAGCUGCACCAAAGACAAGCGAAUGGGUCAUUUCUAAAGA,10.8
UUGCUCUCGAGGCUUGGAGAGAUGUGUGUCCCUCCCUGGCACUCACUUCAGGCCGCAUGGGCAGGAAUGUGGCCUGGGGCUGGCAGGGUUGGCAGGGCUGCCAUCCCAGC,0.495
UCCGCUGCUUCUUGGUUGCCGAGACAGAGAGAUGGUGGUCUCGGGCCAGCCCCUCCUCUCCCCGCCUUCUGGGAGGAGGAGGUCACACGCUGAUGGGCACUGGAGAGGCC,1.58
GCUUCCCGAUUCUCAGGUCUUCUCGGAGGCAGAUCCCUUCCUGAGCUCCAGGCUCUGACUUCACCGUCACCCUCUGAAGAGCUAUGAUCAUGCUGGUGAGAAAGUAUGAU,0.351
GUAGAACUACUUUGGAAUUUAUCUCCAUUUUCCACAAAAAGAAGCUUCUUUGAUGAAGGAGGAGAGAUGAAGAGUUGCUUGUUUUGCAGAAUUCUAUAGCAUGAAGGUUA,1.37
GGGAACGAGAAAACUGCUGUUCGUUUGUAUUUGUGAACUUGGCUGUAAUCUGGUAUGCCAUAGGAUGUCAGAUAAUACCACUGGUUAAAAUAAAGCCUAGUUUUCAAAUU,0.723
UCCAGGCUUGGCUGAGACGGACGGUAGACUUCCACCAUGUACCGAUCACAUCCCAGCUCUGCAUGGCCCCUGCUAAGGCUCAGGUAUAACCUCACCUUCCCUGGCUCAUC,0.648
UAGGUGAUGUAAAAUAACCGUACAAUAUUAUGCAUGCUAUCCCAUAAUGCUUAGUGACUGUAUGAUAUUACUCAGAGUUCUGUUAGACUUUUUUUCUGCCUCGGUUCUUA,0.54
UAGUGUCUGUAUAUUUGUGAUGCAAUGGUCUUGUAAAGGUUUUUAAUGAAAACUACCAUUAGCCAGUCUUUCUUACUGACAAUAAAUUAUUAAUAAAAUACUUGAGCUUU,1.19
CAUCUGGCACCAAUUAGGUAUUUCUUAAAACAGGACUCAUCUGUCAGAGUGCACAUGAAAAAUCAGGCAGGGAAUCGAAACGACAGUGCUGGAGGAGACUCAGGAAGCAG,0.438
AGAAUGUCCUUAUUCUUGUGGUUAAAAAACCUGCCUGAAUUAAAUUGGGCUUAAAUCAGUGUAACCUGAUUCAUCCUGGGAUGUAAACCAUUUGAAGUCAGCUAAUUUGA,0.525

# Study 5 — method: protein binding microarray; form: double-stranded DNA, one strand shown; medium: in vitro; concentration: not given; relative to: not given; reading: higher = stronger binding
# Target: Histone acetyltransferase KAT6A, winged helix 1, GST fusion (KAT6A, Homo sapiens, UniProt Q92794, residues 1-85)
# Notes: 8-mer, flanks averaged, mean of 2 arrays, mostly near background
# Construct (chain): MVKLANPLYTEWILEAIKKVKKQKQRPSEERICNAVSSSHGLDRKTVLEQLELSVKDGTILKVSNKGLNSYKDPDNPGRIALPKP
Strand,E-score
ACCACGTA,-0.227
ACTGGACC,0.00885
CGAGCAAG,-0.0562
CTGATTTA,-0.0436
CAACGGTG,0.169
CGCATACG,0.319
ATTGGTGC,0.0408
GACGGGGA,0.327
AAGCCTGG,-0.113
ATACGAGC,-0.163
AAAGTGCC,-0.141
AAGAGCGG,0.281
ATTAGTCC,0.0385
CGATACCA,-0.0944
AGCAGACT,-0.0893
GACCATCC,-0.0554
GTCGGGCA,0.109
CGCGCCAG,0.374
CGAATAAA,-0.125
TGGTGAAA,-0.157
AGCACGGA,0.082
ACGTGCGC,0.332
AAAGTGGA,-0.224
GACAGGGA,-0.125
AGCGTGAT,-0.027
